Assay results pooled from the literature.
Lines come from different studies, so protocols differ.

SMILES | organism | assay | test system | setting | scale | quantity | value
Cc1cc(N)c2c(OCC(C)(C)C(=O)NC(C)C)cccc2n1 | Salmonella typhimurium | reverse mutation, plate incorporation | TA98 | 10 µg/plate, with rat liver S9 | – | mean revertant colonies | 29 colonies/plate
CC[C@H](C)[C@H](N)C(=O)O | Bacillus subtilis | – | NCIB3610, MOPS medium | 1 mM, 1 mM equimolar amino acid mixture | – | uptake half-time | > 25 h
CC(C)C(=O)OC[C@H]1O[C@@](C#N)(c2ccc3c(N)ncnn23)[C@H](O)[C@@H]1O | human respiratory syncytial virus | viral replication, viral protein ELISA | HEp-2, A2 | 5 days | reference: CC50 over EC50 | selectivity index | 148
Nc1nc2c(ncn2COCCO)c(=O)[nH]1 | Herpes simplex virus 2 | – | HeLa, 333 | – | reference: CC50 over IC50 | therapeutic index | > 100
N=C(N)NCCC[C@H](N)C(=O)O | Bacillus subtilis | – | NCIB3610, MOPS medium | 1 mM, 1 mM equimolar amino acid mixture | – | uptake half-time | 7.3 h
NC(=O)c1ncn([C@@H]2O[C@H](CO)[C@@H](O)[C@H]2O)n1 | human respiratory syncytial virus | viral replication, viral protein ELISA | HEp-2, A2 | 5 days | reference: CC50 over EC50 | selectivity index | 6.63
Cc1cc(Nc2ccc(S(F)(F)(F)(F)F)cc2)n2nc(C(C)(F)F)nc2n1 | Plasmodium falciparum | 12-lead ECG | malaria patients | oral, 400 mg, increase above 30 ms | – | patients with QTcB increase | 0%
N[C@@H](CO)C(=O)O | Bacillus subtilis | – | 168, S7 medium | 1 mM, equimolar amino acid mixture | – | uptake half-time | 9.5 h
N#C[C@@]1(c2ccc3c(N)ncnn23)O[C@H](COC(=O)C2CCCCC2)[C@@H](O)[C@H]1O | human respiratory syncytial virus | viral replication, viral protein ELISA | HEp-2, A2 | 5 days | reference: CC50 over EC50 | selectivity index | 86

A few entries again:
SMILES | organism | assay | test system | setting | scale | quantity | value
N[C@@H](CO)C(=O)O | Bacillus subtilis | – | 168, S7 medium | 1 mM, equimolar amino acid mixture | – | uptake half-time | 9.5 h
